Measured values from different studies.
Protocols differ between the studies behind these lines.
Organism: Enterococcus faecalis

CN[C@@H]1[C@H](O)[C@H](NC)[C@H]2O[C@]3(O)[C@H](O[C@@H]2[C@H]1O)O[C@H](C)C[C@H]3NC(=O)Cc1cscn1 gave an MIC of 50 µg/mL (microbial growth, broth dilution; ATCC33186).
With CN[C@H](CC(C)C)C(=O)N[C@H]1C(=O)N[C@@H](CC(N)=O)C(=O)N[C@H]2C(=O)N[C@H]3C(=O)N[C@H](C(=O)N[C@H](C(=O)NCc4cn(CCCCC(=O)N[C@H](C(=O)N[C@@H](CCN)C(=O)N[C@H]5CCNC(=O)[C@H]([C@@H](C)O)NC(=O)[C@H](CCN)NC(=O)[C@H](CCN)NC(=O)[C@H](CC(C)C)NC(=O)[C@@H](CC(C)C)NC(=O)[C@H](CCN)NC5=O)[C@@H](C)O)nn4)c4cc(O)cc(O)c4-c4cc3ccc4O)[C@H](O)c3ccc(c(Cl)c3)Oc3cc2cc(c3O[C@@H]2O[C@H](CO)[C@@H](O)[C@H](O)[C@H]2O[C@H]2C[C@](C)(N)[C@H](O)[C@H](C)O2)Oc2ccc(cc2Cl)[C@H]1O the MIC was 64 µg/mL (broth microdilution; vancomycin-resistant, tryptic soy broth; 20 to 24 h, 37 °C, 0.002% polysorbate 80).
CC(C)[C@H](NC(=O)[C@H](Cc1ccc(O)cc1)NC(=O)[C@H](CS)NC(=O)[C@@H](NC(=O)[C@H](CCCNC(=N)N)NC(=O)[C@H](Cc1ccccc1)NC(=O)[C@H](CS)NC(=O)[C@H](Cc1c[nH]c2ccccc12)NC(=O)[C@@H](N)CCCNC(=N)N)C(C)C)C(=O)NCC(=O)N[C@@H](Cc1ccccc1)C(=O)N[C@@H](CS)C(=O)N[C@@H](Cc1ccc(O)cc1)C(=O)N[C@@H](Cc1c[nH]c2ccccc12)C(=O)N[C@@H](CCCCN)C(=O)N[C@@H](CS)C(=O)N[C@@H](CCCNC(=N)N)C(=O)O gave an MIC of 4.39 µg/mL (ATCC 29212).
COc1cccc(OC)c1C(=O)N[C@@H]1C(=O)N2[C@@H]1SC(C)(C)[C@@H]2C(=O)O has an MIC of 128 µM (clinical isolate; 18 to 20 h, 37 °C).
CC[C@H](C)[C@@H]1NC(=O)[C@H](C(C)C)NC(=O)[C@H](C(C)C)NC(=O)[C@H](CC(C)C)NC(=O)C[C@@H](C(=O)N[C@@H](Cc2c[nH]c3ccccc23)C(=O)N[C@@H](CC(N)=O)C(=O)N[C@@H](C)C(=O)N2CCC[C@H]2C(=O)NCC(=O)N[C@@H](Cc2c[nH]c3ccccc23)C(=O)N[C@@H](Cc2ccccc2)C(=O)O)NC(=O)[C@H](C)NC(=O)[C@H](CCC(N)=O)NC(=O)[C@H](C(C)C)NC1=O gave an MIC of > 32 µg/mL (vancomycin-resistant 1010798).
C#CCOc1ccc(CN[C@@]2(C)C[C@H](O[C@H]3[C@H](Oc4c5cc6cc4Oc4ccc(cc4Cl)[C@@H](O)[C@@H](NC(=O)[C@@H](CC(C)C)NC)C(=O)N[C@@H](CC(N)=O)C(=O)N[C@H]6C(=O)N[C@H]4C(=O)N[C@H](C(=O)N[C@H](C(=O)O)c6cc(O)cc(O)c6-c6cc4ccc6O)[C@H](O)c4ccc(c(Cl)c4)O5)O[C@H](CO)[C@@H](O)[C@@H]3O)O[C@@H](C)[C@H]2O)cc1OC gave an MIC of 32 µg/mL (broth microdilution; vancomycin-resistant, tryptic soy broth; 20 to 24 h, 37 °C, 0.002% polysorbate 80).
For CC[C@H](C)[C@H](N)C(=O)N[C@@H](CCCNC(=N)N)C(=O)N[C@H](C(=O)N[C@@H](Cc1c[nH]c2ccccc12)C(=O)N[C@@H](Cc1ccccc1)C(=O)N[C@H](C(=O)N[C@@H](CCCCN)C(=O)N[C@H](C(=O)N[C@@H](CCCNC(=N)N)C(=O)N[C@@H](CCCCN)C(=O)N[C@@H](CCSC)C(=O)N[C@@H](CCCCN)C(=O)N[C@@H](C)C(=O)N[C@H](C(=O)N[C@@H](Cc1ccc(O)cc1)C(=O)N[C@@H](Cc1c[nH]cn1)C(N)=O)[C@@H](C)CC)C(C)C)[C@@H](C)CC)C(C)C, the MIC was 12.5 µM (broth dilution; KCTC 3511).
The MIC of CC[C@H](C)[C@H](NC(=O)CNC(=O)[C@@H](NC(=O)CNC(=O)[C@@H](NC(=O)CNC(=O)[C@@H](NC(=O)[C@@H](NC(=O)[C@H](CCC(N)=O)NC(=O)[C@H](CCC(=O)O)NC(=O)[C@@H](NC(=O)[C@H](CC(C)C)NC(=O)[C@H](CCCNC(=N)N)NC(=O)[C@H](Cc1ccccc1)NC(=O)[C@@H](NC(=O)[C@H](CC(N)=O)NC(=O)[C@H](CCCCN)NC(=O)CNC(=O)[C@H](CCSC)NC(=O)[C@H](CCCCN)NC(=O)CNC(=O)[C@H](CC(C)C)NC(=O)[C@H](CCCCN)NC(=O)[C@H](CCCCN)NC(=O)CNC(=O)[C@H](Cc1ccccc1)NC(=O)[C@H](CCCCN)NC(=O)[C@H](CCCCN)NC(=O)[C@H](CC(C)C)NC(=O)[C@H](Cc1c[nH]c2ccccc12)NC(=O)CN)C(C)C)C(C)C)C(C)C)C(C)C)C(C)C)C(C)C)C(=O)N[C@@H](CC(N)=O)C(=O)N[C@@H](C)C(=O)N[C@@H](CC(C)C)C(=O)N[C@@H](CO)C(=O)O is reported as 17.6 µg/mL (ATCC 29212).
CN[C@H](CC(C)C)C(=O)N[C@H]1C(=O)N[C@@H](CC(N)=O)C(=O)N[C@H]2C(=O)N[C@H]3C(=O)N[C@H](C(=O)N[C@H](C(=O)NCc4cn(CC(=O)N[C@H](C(=O)N[C@@H](CCN)C(=O)N[C@H]5CCNC(=O)[C@H]([C@@H](C)O)NC(=O)[C@H](CCN)NC(=O)[C@H](CCN)NC(=O)[C@H](CC(C)C)NC(=O)[C@@H](CC(C)C)NC(=O)[C@H](CCN)NC5=O)[C@@H](C)O)nn4)c4cc(O)cc(O)c4-c4cc3ccc4O)[C@H](O)c3ccc(c(Cl)c3)Oc3cc2cc(c3O[C@@H]2O[C@H](CO)[C@@H](O)[C@H](O)[C@H]2O[C@H]2C[C@](C)(N)[C@H](O)[C@H](C)O2)Oc2ccc(cc2Cl)[C@H]1O has an MIC of 3 µM (broth microdilution; vancomycin-resistant).
CN[C@@H]1[C@H](O)[C@H](NC)[C@H]2O[C@]3(O)[C@H](O[C@@H]2[C@H]1O)O[C@H](C)C[C@H]3NC(=O)Cc1cc(Cl)ccn1 gave an MIC of 50 µg/mL (microbial growth, broth dilution; ATCC33186).

A few entries again:
CN[C@@H]1[C@H](O)[C@H](NC)[C@H]2O[C@]3(O)[C@H](O[C@@H]2[C@H]1O)O[C@H](C)C[C@H]3NC(=O)Cc1cc(Cl)ccn1 gave an MIC of 50 µg/mL (microbial growth, broth dilution; ATCC33186).
